Results of several laboratories.
Lines come from different studies, so protocols differ. ± marks the error that the study gave.

O=C1/C(=C/c2ccc3c(c2)OCCO3)SC(=S)N1[C@@H]1O[C@H](CO)[C@@H](O)[C@H](O)[C@H]1O — viability (WISH; cell growth or viability, MTT; 100 µM, 48 h): ~75%
CC(C)=CCc1cc2c(cc1O)OC[C@H]1c3ccc(O)c(CC=C(C)C)c3O[C@@H]21 — viability (3T3-L1; MTT; concentration not given): 78.3 ± 0.7%
COc1ccc([C@@H]2CC(=O)c3c(O)cc(O[C@@H]4O[C@H](CO[C@@H]5O[C@@H](C)[C@H](O)[C@@H](O)[C@H]5O)[C@@H](O)[C@H](O)[C@H]4O)cc3O2)cc1O — viability (MRC5; cell growth or viability, MTS; 50 µg/mL, 72 h): 89.4%
CCOP(=O)(CC(=O)Nc1ccc(S(=O)(=O)N(CC(N)=O)c2ccc(N(CC(N)=O)S(=O)(=O)c3ccc(OC)cc3)c3ccccc23)cc1)OCC — viability (mouse primary cortical neurons; CCK-8; up to 100 µM, 24 h): not toxic
CC1(C)CC[C@]2(C)CC[C@]3(C)[C@H]([C@@H](O)C[C@@H]4[C@@]5(C)CCCC(C)(C)[C@@H]5CC[C@]43C)[C@@H]2C1 — viability (3T3-L1; MTT; concentration not given, 72 h, with: insulin 30 nM): 101%
Cc1cc(C)cc(C(=O)Nc2cccc(S(N)(=O)=O)c2)c1 — viability (BHK-21; cell growth or viability, MTT; 100 µM, serum-free): 34%
COc1c(CC=C(C)C)c(O)cc2c1-c1oc3c(CC=C(C)C)c(O)ccc3c1CO2 — viability (3T3-L1; MTT; concentration not given): 54.1 ± 0.9%
O=C1NN=C(c2ccccc2)/C1=N/Nc1ccccc1 — viability (WISH; cell growth or viability, MTT; 100 µM): ~78%
COc1ccc(C(=O)Nc2cccc(S(N)(=O)=O)c2)cc1OC — viability (BHK-21; cell growth or viability, MTT; 100 µM, serum-free): 98%
COc1cc2oc3cc(O)c(OC)c(CC=C(C)C)c3c(=O)c2c(O)c1CC=C(C)C — viability (3T3-L1; MTT; concentration not given, 72 h, with: insulin 30 nM): 101%
CC(C)=CCc1c(O)ccc2c1O[C@H]1c3cc4c(cc3OC[C@@H]21)OC(C)(C)C=C4 — viability (3T3-L1; MTT; concentration not given): 36.9 ± 0.8%
C[C@H]1[C@@H](O)CC[C@@H]2[C@]1(C)CC[C@H]1[C@@]2(C)CC[C@@]2(C)[C@@H]3CC(C)(C)CC[C@]3(C)CC[C@]12C — viability (3T3-L1; MTT; concentration not given, 72 h, with: insulin 30 nM): 102%
COc1ccc2c(c1CC=C(C)C)O[C@H]1c3cc(CC=C(C)C)c(O)cc3OC[C@@H]21 — viability (3T3-L1; MTT; concentration not given): 85.2 ± 1.8%
C=CC1=C(C)C2=NC1=Cc1c(C)c(CCC(=O)O)c3[n]1[Co][n]1c(c(C)c(C=C)c1=C2)=CC1=NC(=C3)C(CCC(=O)O)=C1C — viability (Huh5.15 replicon cells; MTT; 10 or 20 µM, 24 and 48 h): no effect
